Experimental data of several laboratories.
Each numbered part is a random draw from the data of one study; scales do not carry over between parts. Positions count from the first letter of the parent shown.

Block 1
Target: Hepatocyte nuclear factor 3-beta, forkhead domain (FOXA2, Homo sapiens, UniProt Q9Y261, residues 142-269)
Method: protein-binding microarray
Molecule type: double-stranded DNA, one strand shown
Sample: in vitro
Tested at: not given
Setting: k-mer, scored over probes, only values ≥0.25
Direction: higher = stronger binding
Target sequence (chain): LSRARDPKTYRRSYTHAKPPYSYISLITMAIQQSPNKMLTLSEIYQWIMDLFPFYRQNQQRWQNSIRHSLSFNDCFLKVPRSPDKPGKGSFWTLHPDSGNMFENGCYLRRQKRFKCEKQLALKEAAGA
Oligonucleotide	E-score
AGTACTAC	0.283
AAATATTA	0.304
ATATAGGA	0.257
ACATAGCA	0.304
AATAATCT	0.283
CGATATTA	0.315
AATTTCCA	0.267
ATAACAAT	0.322
TAATACCA	0.285
GTAATACA	0.345
ATTACAAG	0.347
ACATCAAT	0.324
TAAACATA	0.327
AACACAAT	0.343

Block 2
Target: XBP1, bZIP domain (human)
Method: DHFR protein complementation
Sample: yeast
Setting: single substitutions, most at no-binding floor
Baseline: wild-type JUN-FOS pair
Direction: higher = stronger binding
Starting sequence: JUN, bZIP domain (human); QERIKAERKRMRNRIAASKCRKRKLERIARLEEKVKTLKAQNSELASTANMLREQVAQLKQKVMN; partner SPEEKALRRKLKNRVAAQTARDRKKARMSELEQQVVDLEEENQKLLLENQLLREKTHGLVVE
Substitution	binding fitness
A49V	-1 natural log
M51N	-0.91 natural log
S47E	-0.412 natural log
S43Q	-0.325 natural log
L52Y	-1.37 natural log
S43G	-0.964 natural log
Q41D	-1.25 natural log
R53W	-1.5 natural log
T37K	-0.755 natural log
M51Q	-0.603 natural log
E32C	-1.42 natural log
R30W	-0.255 natural log
A46L	-0.549 natural log
L45S	-1.41 natural log
T48Q	-0.446 natural log
L31A	-1.49 natural log

Block 3
Target: CCNE1, cyclin fold, Cln2 fusion (human)
Method: yeast growth competition, sequencing
Sample: yeast
Setting: strong parent motif
Baseline: not given
Direction: higher = stronger binding
Starting sequence: CDKN1A docking peptide (human); SKACRRLFGPVDS
Substitution	normalised enrichment score
SKACRRFFGPVDS [L7F]	0.414
SKCCRRLFGPVDS [A3C]	4.56
SKYCRRLFGPVDS [A3Y]	2.21
SKACRRLFGFVDS [P10F]	3.35
SKACRRLFGPLDS [V11L]	5.19
SKACRREFGPVDS [L7E]	-0.264
SKACRRLTGPVDS [F8T]	-0.381
SKACRRLFGPSDS [V11S]	5.53
SKACLRLFGPVDS [R5L]	0.414
SKACARAFGPVDS [R5A L7A]	0.0899
SKACRRLVGPVDS [F8V]	0.397
SKFCRRLFGPVDS [A3F]	1.65
SKACERLFGPVDS [R5E]	0.123
SKATRRLFGPVDS [C4T]	1.92
SCACRRLFGPVDS [K2C]	4.06

Block 4
Target: ABI1, truncated, D143A, DHFR fusion (Arabidopsis thaliana)
Method: DHFR PCA, deep sequencing
Sample: yeast
Setting: methotrexate growth selection, single substitutions
With: (+)-ABA 1.4 µM
Baseline: wild-type fitted maximum
Direction: higher = stronger binding
Starting sequence: PYL1, truncated, DHFR fusion (Arabidopsis thaliana); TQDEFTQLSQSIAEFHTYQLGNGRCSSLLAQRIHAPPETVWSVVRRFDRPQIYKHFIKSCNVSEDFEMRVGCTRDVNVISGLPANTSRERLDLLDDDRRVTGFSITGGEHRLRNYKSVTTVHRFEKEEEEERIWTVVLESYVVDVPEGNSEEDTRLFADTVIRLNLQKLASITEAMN
Substitution	relative binding score
N61E	68.7%
N22Y	52.6%
E14N	-6.85%
D144L	-13.1%
T6D	68.8%
A170L	-21.3%
G23P	-5.36%
T101S	17.6%
I33L	6.57%
S42D	49.5%
V44P	-0.889%
F157D	9.1%
S27V	1.25%
N22L	47.7%

Block 5
Target: Histone acetyltransferase KAT6A, both winged helices, GST fusion (KAT6A, Homo sapiens, UniProt Q92794, residues 1-181)
Method: protein binding microarray
Molecule type: double-stranded DNA, one strand shown
Sample: in vitro
Tested at: not given
Setting: 8-mer, flanks averaged, mean of 2 arrays, mostly near background
Baseline: not given
Direction: higher = stronger binding
Construct (chain): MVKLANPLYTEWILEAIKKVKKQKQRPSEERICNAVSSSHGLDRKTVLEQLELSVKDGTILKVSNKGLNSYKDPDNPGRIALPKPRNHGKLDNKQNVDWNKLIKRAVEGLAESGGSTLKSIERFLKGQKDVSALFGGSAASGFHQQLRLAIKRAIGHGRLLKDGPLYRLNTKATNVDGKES
Oligonucleotide	E-score
TGAACGCA	0.0567
AGAGGAAC	-0.126
CCCGCTGC	0.192
ACACTTAA	-0.093
ACGTAGAT	-0.0481
AATAACGT	0.0114
GACCGCTA	0.239
ATATCTAC	0.0287
CTTTTTCC	0.0418
CACCGCTC	0.168
ATGAACCG	0.142
ATCATAGA	-0.16
ACAATAGG	-0.00386
CGCGGTGC	0.359
ACTCCTGG	-0.139
ACGGTCGG	0.247
AGACAATC	-0.101
CGTCGCAA	0.198
AGATGCCG	0.209
CGGTGCAA	0.09
CCGCCCGG	0.295

Block 6
Target: Interferon regulatory factor 5, full length, phosphomimetic (IRF5, Homo sapiens, UniProt Q13568-2, residues 1-514, S451D/S453D/S456D/S462D)
Method: protein-binding microarray
Molecule type: double-stranded DNA, one strand shown
Sample: in vitro
Tested at: 940 nM top
Setting: 60-bp whole probe
With: salmon DNA 0.4 mg/ml
Baseline: random background probes
Direction: higher = stronger binding
All sequences stand within: GCCTAGCAC … GTCTTGATTCGCTTGACGCTGCTG
Oligonucleotide	fitted relative affinity
CACGATATCGGGTATCGAGACGTGCTA	1.08 z-score
GACGGTCTGGGTATCGGGACGTGCTAG	0.852 z-score
TTTTTTTTTTTTTTACTTCGGTGCTAG	1.39 z-score
CTAGGTATCGGTATCGGTTAGTGCTAG	9.56 z-score
TTAGGTTTCCTTTCCGTTTAGTGCTAG	2.13 z-score
TTAGGTCTCTGACTGGGTTAGTGCTAG	-0.156 z-score
GACGGACTGGACACTGGGAACGTGCTA	-0.417 z-score
TTAGGACTGCTACGGCTTTAGTGCTAG	-0.492 z-score
GACGATGTCAGACTGGAGACGTGCTAG	-0.345 z-score
TCATTTTTCTAATTGAAACTGTGCTAG	0.652 z-score
TTCATTTTTTTTTTCATCATGTGCTAG	1.91 z-score
TCAGGTTTCGGTCTCGGTTAGTGCTAG	14 z-score
TTAGGTTTCGACTTTGGGTTAGTGCTA	8.57 z-score
TTAGGCCTGGACTTTCGGTTAGTGCTA	2.16 z-score
TCAACTCTCTCCATGTGACTGTGCTAG	0.577 z-score
TTAGAACTGGGGTAGCGATTAGTGCTA	0.111 z-score
TTAGGTTTCCTACTGCTATAGTGCTAG	0.652 z-score
TCACCTTTTAAGTTCTCACTGTGCTAG	1.16 z-score
ATATATGTAATCATTCACCTGGTGCTA	0.0653 z-score
TTAGATATCAGTATCGATAAGTGCTAG	4.2 z-score
GGGAATTTAGAAAATGGAAATGTGCTA	0.00924 z-score
TCAGGTTTCCAATCAGCACTGTGCTAG	0.657 z-score
